{"data": "Assay results pooled from the literature", "note": "A part holds a random share of what one study measured. Several values in a cell are separate wells, animals, samples, runs or records.", "UniProt Q16853, sequence (whole entry, looked up)": "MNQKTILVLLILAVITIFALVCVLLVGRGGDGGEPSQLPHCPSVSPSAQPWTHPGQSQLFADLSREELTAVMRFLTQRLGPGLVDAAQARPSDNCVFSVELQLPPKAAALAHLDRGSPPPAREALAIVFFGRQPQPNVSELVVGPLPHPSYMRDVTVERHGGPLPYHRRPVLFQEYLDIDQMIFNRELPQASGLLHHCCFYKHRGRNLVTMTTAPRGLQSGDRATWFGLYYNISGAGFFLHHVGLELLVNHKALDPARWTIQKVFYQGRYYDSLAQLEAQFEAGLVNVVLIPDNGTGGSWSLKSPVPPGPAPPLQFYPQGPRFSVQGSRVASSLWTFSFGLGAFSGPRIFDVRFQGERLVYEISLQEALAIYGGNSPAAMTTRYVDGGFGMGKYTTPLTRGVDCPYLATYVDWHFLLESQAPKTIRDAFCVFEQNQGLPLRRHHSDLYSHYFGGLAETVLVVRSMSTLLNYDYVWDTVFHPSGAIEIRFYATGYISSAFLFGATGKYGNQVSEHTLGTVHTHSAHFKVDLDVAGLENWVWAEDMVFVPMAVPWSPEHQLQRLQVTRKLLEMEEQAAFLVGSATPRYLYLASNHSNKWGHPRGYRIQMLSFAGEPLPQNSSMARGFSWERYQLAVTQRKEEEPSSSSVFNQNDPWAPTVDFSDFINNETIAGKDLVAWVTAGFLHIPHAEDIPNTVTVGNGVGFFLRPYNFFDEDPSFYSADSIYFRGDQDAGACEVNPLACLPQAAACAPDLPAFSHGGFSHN", "UniProt P42685, sequence (whole entry, looked up)": "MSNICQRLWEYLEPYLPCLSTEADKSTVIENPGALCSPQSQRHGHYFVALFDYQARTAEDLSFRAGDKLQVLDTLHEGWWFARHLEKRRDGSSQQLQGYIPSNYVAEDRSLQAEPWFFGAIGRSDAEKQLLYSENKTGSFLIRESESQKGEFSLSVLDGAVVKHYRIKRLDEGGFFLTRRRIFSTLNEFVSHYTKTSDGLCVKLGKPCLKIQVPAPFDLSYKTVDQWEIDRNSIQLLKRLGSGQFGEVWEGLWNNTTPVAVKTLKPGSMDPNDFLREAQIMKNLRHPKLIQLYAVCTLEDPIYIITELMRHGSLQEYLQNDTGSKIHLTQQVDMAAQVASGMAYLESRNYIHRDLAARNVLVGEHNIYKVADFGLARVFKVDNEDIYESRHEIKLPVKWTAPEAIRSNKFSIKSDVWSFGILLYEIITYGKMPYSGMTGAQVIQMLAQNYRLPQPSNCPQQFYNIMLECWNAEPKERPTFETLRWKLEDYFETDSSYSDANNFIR", "UniProt O00506, sequence (whole entry, looked up)": "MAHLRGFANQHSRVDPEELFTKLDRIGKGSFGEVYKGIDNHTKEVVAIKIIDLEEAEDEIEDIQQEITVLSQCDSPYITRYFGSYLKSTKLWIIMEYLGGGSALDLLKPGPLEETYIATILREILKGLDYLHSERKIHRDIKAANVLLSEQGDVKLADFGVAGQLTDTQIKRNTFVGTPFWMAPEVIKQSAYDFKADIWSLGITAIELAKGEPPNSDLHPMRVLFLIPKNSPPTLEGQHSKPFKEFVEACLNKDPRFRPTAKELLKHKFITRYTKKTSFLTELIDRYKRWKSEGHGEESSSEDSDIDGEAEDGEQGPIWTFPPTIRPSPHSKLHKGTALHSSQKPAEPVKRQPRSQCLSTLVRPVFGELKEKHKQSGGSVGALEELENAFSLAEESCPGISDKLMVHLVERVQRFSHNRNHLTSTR", "UniProt P04629, sequence (whole entry, looked up)": "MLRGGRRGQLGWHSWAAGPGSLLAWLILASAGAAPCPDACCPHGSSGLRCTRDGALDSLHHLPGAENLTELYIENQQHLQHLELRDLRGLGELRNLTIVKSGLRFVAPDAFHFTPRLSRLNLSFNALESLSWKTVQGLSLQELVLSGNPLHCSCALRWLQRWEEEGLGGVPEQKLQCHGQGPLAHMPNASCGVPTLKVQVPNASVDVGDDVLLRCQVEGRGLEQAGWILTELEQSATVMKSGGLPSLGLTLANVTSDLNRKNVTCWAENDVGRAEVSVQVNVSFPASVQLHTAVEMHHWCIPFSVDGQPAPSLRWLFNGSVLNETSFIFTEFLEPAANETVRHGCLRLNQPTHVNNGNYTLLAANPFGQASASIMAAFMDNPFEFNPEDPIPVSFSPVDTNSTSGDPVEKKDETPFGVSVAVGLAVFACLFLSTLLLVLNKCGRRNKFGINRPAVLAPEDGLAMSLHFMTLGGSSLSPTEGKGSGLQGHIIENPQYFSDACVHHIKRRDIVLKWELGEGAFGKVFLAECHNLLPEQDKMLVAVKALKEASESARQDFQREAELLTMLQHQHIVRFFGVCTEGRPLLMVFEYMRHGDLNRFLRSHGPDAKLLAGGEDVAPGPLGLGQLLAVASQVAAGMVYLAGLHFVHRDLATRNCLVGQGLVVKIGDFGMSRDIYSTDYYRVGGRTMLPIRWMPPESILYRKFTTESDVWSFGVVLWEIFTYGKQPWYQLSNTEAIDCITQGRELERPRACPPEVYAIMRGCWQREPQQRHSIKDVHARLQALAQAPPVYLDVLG", "UniProt Q13523, sequence (whole entry, looked up)": "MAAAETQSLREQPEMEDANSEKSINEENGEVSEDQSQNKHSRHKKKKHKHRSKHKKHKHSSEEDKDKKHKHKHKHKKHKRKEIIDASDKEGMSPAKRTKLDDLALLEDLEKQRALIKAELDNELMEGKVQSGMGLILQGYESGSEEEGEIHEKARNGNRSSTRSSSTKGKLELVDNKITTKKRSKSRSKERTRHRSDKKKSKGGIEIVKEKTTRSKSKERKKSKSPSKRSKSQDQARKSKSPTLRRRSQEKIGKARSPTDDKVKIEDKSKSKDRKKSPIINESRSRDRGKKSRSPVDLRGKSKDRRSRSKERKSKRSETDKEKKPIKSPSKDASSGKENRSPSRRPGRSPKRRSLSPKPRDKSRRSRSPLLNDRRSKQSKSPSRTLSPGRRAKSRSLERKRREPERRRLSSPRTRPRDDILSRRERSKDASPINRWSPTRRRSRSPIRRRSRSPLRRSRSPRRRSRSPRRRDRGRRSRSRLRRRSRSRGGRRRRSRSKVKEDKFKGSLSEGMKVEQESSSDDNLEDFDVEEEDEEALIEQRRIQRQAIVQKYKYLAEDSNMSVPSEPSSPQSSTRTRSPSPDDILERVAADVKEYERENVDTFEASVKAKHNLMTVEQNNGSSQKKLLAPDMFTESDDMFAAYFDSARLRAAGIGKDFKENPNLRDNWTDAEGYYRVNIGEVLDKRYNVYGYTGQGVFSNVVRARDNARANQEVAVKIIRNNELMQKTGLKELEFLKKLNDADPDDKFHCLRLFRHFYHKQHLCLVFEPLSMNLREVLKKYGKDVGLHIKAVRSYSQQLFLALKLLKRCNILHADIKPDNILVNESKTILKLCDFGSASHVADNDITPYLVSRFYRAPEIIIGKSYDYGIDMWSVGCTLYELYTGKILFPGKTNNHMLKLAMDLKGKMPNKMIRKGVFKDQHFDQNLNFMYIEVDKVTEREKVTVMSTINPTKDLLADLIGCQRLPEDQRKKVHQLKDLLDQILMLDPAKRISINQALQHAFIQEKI", "UniProt P30291, sequence (whole entry, looked up)": "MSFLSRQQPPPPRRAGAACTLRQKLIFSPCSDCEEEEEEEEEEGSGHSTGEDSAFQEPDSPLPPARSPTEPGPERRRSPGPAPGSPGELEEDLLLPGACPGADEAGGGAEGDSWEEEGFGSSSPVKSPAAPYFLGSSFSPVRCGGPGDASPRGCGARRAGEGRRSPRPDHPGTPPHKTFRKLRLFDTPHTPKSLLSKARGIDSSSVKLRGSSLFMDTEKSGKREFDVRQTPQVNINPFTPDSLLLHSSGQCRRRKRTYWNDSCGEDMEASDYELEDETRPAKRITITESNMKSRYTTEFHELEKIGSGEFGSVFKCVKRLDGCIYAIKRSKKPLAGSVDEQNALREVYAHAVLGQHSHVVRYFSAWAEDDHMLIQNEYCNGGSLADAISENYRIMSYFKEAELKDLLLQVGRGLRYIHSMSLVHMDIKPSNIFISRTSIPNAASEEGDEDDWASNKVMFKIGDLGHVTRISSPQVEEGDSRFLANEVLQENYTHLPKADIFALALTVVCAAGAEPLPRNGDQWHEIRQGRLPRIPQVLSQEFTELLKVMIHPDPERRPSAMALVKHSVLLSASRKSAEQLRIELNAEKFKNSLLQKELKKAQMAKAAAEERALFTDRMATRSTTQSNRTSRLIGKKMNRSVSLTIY"}
{"data": "Series 1", "SMILES": "Cc1ccc(O)c(C)c1-c1cnc2[nH]c(-c3cnc(N4CCC5(CC4)CC(N4CCN(c6ccc(N[C@H]7CCC(=O)NC7=O)cc6F)CC4)CO5)nc3)cc2c1C#N (single isomer, unassigned)", "target": "Membrane-associated tyrosine- and threonine-specific cdc2-inhibitory kinase (PKMYT1, Homo sapiens, UniProt Q99640)", "action": "degrader", "technique": "automated immunoblot (Jess)", "time": "24 h", "Target sequence (Q99640 1-499)": "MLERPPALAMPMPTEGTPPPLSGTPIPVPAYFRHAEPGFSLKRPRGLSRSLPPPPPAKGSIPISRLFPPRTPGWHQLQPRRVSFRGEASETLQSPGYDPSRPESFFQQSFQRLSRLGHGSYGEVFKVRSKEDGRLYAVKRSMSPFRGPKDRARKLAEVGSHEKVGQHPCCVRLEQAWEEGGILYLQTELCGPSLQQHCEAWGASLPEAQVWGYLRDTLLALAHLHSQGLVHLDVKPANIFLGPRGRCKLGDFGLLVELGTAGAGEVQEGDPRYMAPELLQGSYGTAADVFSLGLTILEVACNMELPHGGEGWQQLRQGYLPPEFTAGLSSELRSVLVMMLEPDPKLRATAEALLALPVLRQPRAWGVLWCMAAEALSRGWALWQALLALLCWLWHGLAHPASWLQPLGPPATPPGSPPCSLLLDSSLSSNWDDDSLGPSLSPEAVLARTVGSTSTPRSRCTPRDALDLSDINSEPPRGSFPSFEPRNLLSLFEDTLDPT"}
{"tested at": "12.35 nM", "degradation": "88% and 86.6%"}
{"cell line": "HCC1569", "tested at": "37.04 nM", "degradation": "90%"}
{"tested at": "1000 nM", "degradation": "77.5% and 63.9%"}
{"cell line": "HCC1569", "tested at": "4.12 nM", "degradation": "81.4%"}
{"tested at": "333.33 nM", "degradation": "83.8% and 89.4%"}
{"tested at": "0.05 nM", "degradation": "3.06% and 5.66%"}
{"cell line": "HCC1569", "tested at": "0.02 nM", "degradation": "-11.1%"}
{"data": "Series 2", "SMILES": "NC/C(=C\\F)COc1cccc(Cn2c(=S)[nH]c(=O)c3[nH]ccc32)c1", "observed": "enzyme activity", "action": "inhibitor", "technique": "fluorescence", "MPO": "Myeloperoxidase (MPO, Homo sapiens, UniProt P05164)", "UniProt P05164, sequence (whole entry, looked up)": "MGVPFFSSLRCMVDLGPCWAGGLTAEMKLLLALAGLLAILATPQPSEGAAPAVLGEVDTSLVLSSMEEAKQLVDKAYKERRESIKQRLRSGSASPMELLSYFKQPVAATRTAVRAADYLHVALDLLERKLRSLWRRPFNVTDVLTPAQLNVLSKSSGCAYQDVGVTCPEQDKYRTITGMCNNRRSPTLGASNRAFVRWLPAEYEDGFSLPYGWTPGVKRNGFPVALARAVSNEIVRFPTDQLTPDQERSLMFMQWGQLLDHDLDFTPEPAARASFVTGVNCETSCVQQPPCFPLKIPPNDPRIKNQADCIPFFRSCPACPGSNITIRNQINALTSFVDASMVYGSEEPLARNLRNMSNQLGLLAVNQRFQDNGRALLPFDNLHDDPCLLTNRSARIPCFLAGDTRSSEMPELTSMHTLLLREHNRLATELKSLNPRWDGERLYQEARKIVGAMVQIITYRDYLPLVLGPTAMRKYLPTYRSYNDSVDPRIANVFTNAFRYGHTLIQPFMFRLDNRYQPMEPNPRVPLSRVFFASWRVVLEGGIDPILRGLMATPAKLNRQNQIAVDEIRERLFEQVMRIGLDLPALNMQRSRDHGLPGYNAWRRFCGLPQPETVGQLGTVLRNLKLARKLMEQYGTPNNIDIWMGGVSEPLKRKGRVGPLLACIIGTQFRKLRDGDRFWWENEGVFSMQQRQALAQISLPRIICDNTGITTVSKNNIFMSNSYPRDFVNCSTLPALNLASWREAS"}
{"target": "MPO", "tested at": "13.7 nM", "inhibition": "53.3% and 55.8% and 51.3%"}
{"target": "MPO", "tested at": "5 µM", "inhibition": "100% and 99.4% and 99%"}
{"target": "MPO", "tested at": "1.5 nM", "inhibition": "15.3% and 11.2% and 7.12%"}
{"target": "AOC3 (Homo sapiens, UniProt Q16853)", "tested at": "200 pM", "inhibition": "4.3% and -4.99%"}
{"target": "MPO", "tested at": "0.1235 µM", "inhibition": "91.8% and 94.3% and 94.4%"}
{"target": "MPO", "tested at": "41.2 nM", "inhibition": "79.4% and 78.2% and 80.1%"}
{"data": "Series 3", "Compound": "CC[C@@]1(c2ccccc2)C2=C(CC(C)(C)CC2=O)Nc2n[nH]cc21", "tested at": "1 µM"}
{"target": "Tyrosine-protein kinase ABL1, phosphorylated (ABL1, Homo sapiens, UniProt P00519, Q252H)", "observed": "binding", "technique": "competition with immobilised ligand", "remaining binding": "66%"}
{"target": "NUAK2 (Homo sapiens, UniProt Q9H093)", "observed": "binding", "technique": "competition with immobilised ligand", "remaining binding": "100%"}
{"target": "PRPF4B (Homo sapiens, UniProt Q13523)", "observed": "binding", "technique": "competition with immobilised ligand", "remaining binding": "70%"}
{"target": "CDK11B (Homo sapiens, UniProt P21127)", "observed": "binding", "technique": "competition with immobilised ligand", "remaining binding": "100%"}
{"target": "CILK1 (Homo sapiens, UniProt Q9UPZ9)", "observed": "kinase binding", "technique": "KINOMEscan", "baseline": "DMSO control", "remaining binding": "100%"}
{"target": "STK25 (Homo sapiens, UniProt O00506)", "observed": "binding", "technique": "competition with immobilised ligand", "remaining binding": "83%"}
{"target": "FRK (Homo sapiens, UniProt P42685)", "observed": "kinase binding", "technique": "KINOMEscan", "baseline": "DMSO control", "remaining binding": "100%"}
{"target": "PKMYT1 (Homo sapiens, UniProt Q99640)", "observed": "kinase binding", "technique": "KINOMEscan", "baseline": "DMSO control", "remaining binding": "85%"}
{"target": "Tyrosine-protein kinase ABL1, phosphorylated (ABL1, Homo sapiens, UniProt P00519, Y253F)", "observed": "kinase binding", "technique": "KINOMEscan", "baseline": "DMSO control", "remaining binding": "75%"}
{"target": "NTRK3 (Homo sapiens, UniProt Q16288)", "observed": "binding", "technique": "competition with immobilised ligand", "remaining binding": "83%"}
{"target": "ACVR1 (Homo sapiens, UniProt Q04771)", "observed": "binding", "technique": "competition with immobilised ligand", "remaining binding": "99%"}
{"target": "FLT3 (Homo sapiens, UniProt P36888, R834Q)", "observed": "kinase binding", "technique": "KINOMEscan", "baseline": "DMSO control", "remaining binding": "100%"}
{"target": "ACVR1B (Homo sapiens, UniProt P36896)", "observed": "kinase binding", "technique": "KINOMEscan", "baseline": "DMSO control", "remaining binding": "100%"}
{"target": "SRPK2 (Homo sapiens, UniProt P78362)", "observed": "binding", "technique": "competition with immobilised ligand", "remaining binding": "95%"}
{"target": "FLT3 (Homo sapiens, UniProt P36888, N841I)", "observed": "kinase binding", "technique": "KINOMEscan", "baseline": "DMSO control", "remaining binding": "100%"}
{"target": "WEE1 (Homo sapiens, UniProt P30291)", "observed": "binding", "technique": "competition with immobilised ligand", "remaining binding": "100%"}
{"target": "ALK (Homo sapiens, UniProt Q9UM73, C1156Y)", "observed": "binding", "technique": "competition with immobilised ligand", "remaining binding": "88%"}
{"target": "NTRK1 (Homo sapiens, UniProt P04629)", "observed": "binding", "technique": "competition with immobilised ligand", "remaining binding": "95%"}
{"target": "Ribosomal protein S6 kinase alpha-5, C-terminal kinase domain (RPS6KA5, Homo sapiens, UniProt O75582)", "observed": "binding", "technique": "competition with immobilised ligand", "remaining binding": "86%"}
{"target": "CDPK1 (Plasmodium falciparum, UniProt P62344)", "observed": "binding", "technique": "competition with immobilised ligand", "remaining binding": "96%"}
{"target": "PIK3CG (Homo sapiens, UniProt P48736)", "observed": "kinase binding", "technique": "KINOMEscan", "baseline": "DMSO control", "remaining binding": "100%"}
{"data": "Series 4", "cell line": "MDA-MB-468", "observed": "cell viability", "technique": "CellCounting-Lite", "tested at": "666.7 nM", "temperature": "37 °C", "reading": "higher = more viable cells"}
{"Structure (SMILES)": "CCn1cnc2c(NCc3nc4cc(Cl)c(Cl)cc4[nH]3)nc(N3CCN(c4ccccn4)CC3)nc21", "luminescence signal": "183000 a.u. and 158000 a.u. and 134000 a.u."}
{"Structure (SMILES)": "Cn1cc(-n2cnc3c(NCc4nc5cc(Cl)c(Cl)cc5[nH]4)nc(N4CCNCC4)nc32)cn1", "luminescence signal": "48500 a.u. and 33300 a.u. and 38300 a.u."}
{"Structure (SMILES)": "CCn1cnc2c(NCc3nc4cc(Cl)c(Cl)cc4[nH]3)nc(N3CCC(NC(C)=O)CC3)nc21", "luminescence signal": "35200 a.u. and 31700 a.u. and 31900 a.u."}
{"Structure (SMILES)": "CC(=O)N1CCN(c2nc(NCc3nc4cc(Cl)c(Cl)cc4[nH]3)c3ncn(C)c3n2)CC1", "luminescence signal": "30700 a.u. and 37200 a.u. and 44100 a.u."}
{"Structure (SMILES)": "CC(=O)N1CCN(c2nc(NCc3nc4cc(Cl)c(Cl)cc4[nH]3)c3ncn(C(C)C)c3n2)CC1", "luminescence signal": "422000 a.u. and 401000 a.u. and 476000 a.u."}
{"Structure (SMILES)": "CCn1cnc2c(NCc3nc4cc(Cl)c(Cl)cc4[nH]3)nc(N3CCN(C(=O)CNC(C)=O)CC3)nc21", "luminescence signal": "28400 a.u. and 32300 a.u. and 32600 a.u."}
{"Structure (SMILES)": "CCn1cnc2c(NCc3nc4cc(Cl)c(Cl)cc4[nH]3)nc(N3CCN(S(C)(=O)=O)CC3)nc21", "luminescence signal": "41300 a.u. and 34400 a.u. and 43500 a.u."}
{"Structure (SMILES)": "CCCCOc1nc(NCc2nc3cc(Cl)c(Cl)cc3[nH]2)c2ncn(CC)c2n1", "luminescence signal": "36300 a.u. and 40400 a.u. and 39500 a.u."}
{"Structure (SMILES)": "CC(=O)N1CCN(c2nc(NCc3nc4cc(Cl)c(Cl)cc4[nH]3)c3ncn(-c4cnn(C)c4)c3n2)CC1", "luminescence signal": "30800 a.u. and 34200 a.u. and 36000 a.u."}
{"note": "Some of these lines once more (series 3):"}
{"target": "NTRK1 (Homo sapiens, UniProt P04629)", "observed": "binding", "technique": "competition with immobilised ligand", "remaining binding": "95%"}
{"target": "FLT3 (Homo sapiens, UniProt P36888, R834Q)", "observed": "kinase binding", "technique": "KINOMEscan", "baseline": "DMSO control", "remaining binding": "100%"}
{"target": "CILK1 (Homo sapiens, UniProt Q9UPZ9)", "observed": "kinase binding", "technique": "KINOMEscan", "baseline": "DMSO control", "remaining binding": "100%"}
{"target": "WEE1 (Homo sapiens, UniProt P30291)", "observed": "binding", "technique": "competition with immobilised ligand", "remaining binding": "100%"}
